Measured values gathered from unrelated publications.
Each numbered part is a random draw from the data of one study; scales do not carry over between parts.

Study 1
Target: RNA binding protein fox-1 homolog 2, RRM domain, GST-SBP tag (RBFOX2, Homo sapiens, UniProt O43251-10, residues 100-194)
Method: RNA Bind-n-Seq
Molecule type: RNA
Medium: in vitro
Concentration: 365 nM
Notes: natural RNA segment, single round, ends assumed
Reference: no-protein control
Direction: higher = stronger binding
Measurement: RBNS enrichment (R)
All sequences stand within: GGGAGUUCUACAGUCCGACGAUC … UGGAAUUCUCGGGUGCCAA
Residues (chain): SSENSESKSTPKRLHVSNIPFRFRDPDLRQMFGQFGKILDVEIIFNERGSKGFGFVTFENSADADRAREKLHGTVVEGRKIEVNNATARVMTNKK
UGAAGCAUGCAAGUAAAGCACUUUUUCUAAUUUAUAUAGAGGUAUCUAAUUAACACAGCACAUUGUACUAAUGACUAGGAGUAGCAGCUUUUUCUUCUCUCCCUCUAUGA: 35.8
UUGCAUUUAGUCAAAAGAAAAAAUGCUUUAUAGCAAAAUGAAAGAGAACAUGAAAUGCUUCUUUCUCAGUUUAUUGGUUGAAUGUGUAUCUAUUUGAGUCUGGAAAUAAC: 0.604
GUACAUUUGUUGUUGCUUGUAAAUUAACUACUCGUAGUAAUAUUUCACUUUUACAUUAUAAUAAAAAGUUUGGAAAAGUUACUUUUCUUGUUUUAUUUUUACAUCAUAUU: 0.743
UCUUGAGGUGACUUAUUUUGCAUAGAGGAUAUGGAUAGACCAACAGUAAGGGUUGUGGGUUAUACCGGCAUAGAGAAAAGAAGAAAACUAGAAUUGAAACAACUGUGUCU: 1.25
GAGCUUUCAUGCUCAGUUGGAAUCUAAUGAAAUAAAUUCUCUUAGCAUACAUUGUAAAUUUGUAUUGUUUUAAAUACAGUAUUGUUUGCUGAAGCAUUGUAAUCAAGUUU: 0.379
GCAGCUGUGAUUGUCAAGGAUCAGCUGUAAUGACUUCCUUGUUGCCUCUCCUGAAGUAUCACUCUACUAAAUGGUUAACAAACCAAUACUUUUAAAAUUGUACCCAAACC: 1.06
CCCUCUGAUGGCCACUCAGAGAAUACCAUAAUAAACAUGGCUGAGGACCCAGGAGAGUUCACGGGAGGCUUCAUCAUAUGAAAGGACAAUGUUCUGGGUUGUGCAUGAAA: 1.49
UGGGCCUGCGAGACCCAAGGCUCACUGCAGCGCGCUCCUGACCCCUCCCUGCAGGGGCUACGUUAGCAGCCCAGCACAUAGCUUGCCUAAUGGCUUUCACUUUCUCUUUU: 0.636
UGCUGCCAUGUCUCAGAUGAGGAGGGAGAGAAGGAGGCCGCCAGACUCGAGAGGUGGGAGGAACUCCUUGCACACACCCUGAGCUUUUGCCACUUCUAUCAUUUUUGAGC: 1.64
UGUGUGUUUAAUUUUUGCUUCAAGCUCUGUAGCAGGACCUGCCCCACGCACACCCCUACCCCUCUGUGAGGAGCUGUGGGAAGUGUGGGUUUGUCUCCAGAACAGAAGAG: 0.231
GUGAUUUUGUUCCAGAUGUCUAUGGCUGGGUGUGUGGGGGAGGAGCACUCUCAUCUGCAGGACUCUGCUUGAUCCUCUGCUUCAUAGCCCUUCCCCAUCUCUCCUCACCA: 0.614
GGGCGGGAGUUCCUACCCCAUCUCUGCUUCCCCUGGAGGCCGGCCAGCGUUUGUGGGUUGGUUCAGGUGUGGUACCUCCCACUCAGGAGUCAAUAUUUUCAAAUUUUUCU: 0.44

Study 2
Target: Sal-like protein 4, full length isoform B (SALL4, Homo sapiens, UniProt Q9UJQ4-2, residues 1-616)
Method: universal PBM
Molecule type: double-stranded DNA, one strand shown
Medium: in vitro
Concentration: not given
Notes: 8-mer, flanks averaged, mean of replicates
Direction: higher = stronger binding
Measurement: E-score
CCACTTCG: -0.178
CGCGATAA: 0.0456
AGTTTCTA: 0.098
ATGCAGCG: -0.117
AACGCGAG: -0.0607
AAGATAGA: 0.148
ATCGGATC: -0.0673
ATTTCACC: 0.137
CCCAAGGG: -0.338
AGGGCAAA: -0.0817
TACGCGAA: 0.0349
GCGAATCA: -0.0211
ACTCCGAC: -0.235
TAAATCCA: 0.124
CGATAGAC: -0.0221
CGGTGGGC: -0.251
CGTGCATA: 0.136
GCTCGTTA: 0.0201
AGCTGTCG: -0.141
ATTGATAG: 0.218
CCGCGTCC: -0.196
ATGGAACC: -0.0408

Study 3
Target: Prothrombin, mature alpha-thrombin (F2, Homo sapiens, UniProt P00734)
Method: aptamer microarray, sandwich
Molecule type: DNA with 2'F-ANA
Medium: in vitro
Concentration: 200 nM
Notes: whole 15-mer aptamer, many near background
With: Cy3 exosite-II aptamer, 400 nM
Direction: higher = stronger binding
Measurement: mean fluorescence intensity
Strand: GGTTGGTGTGGTTGG
2'F-ANA at 1 2 4 5 8 9 12 13 14: 87.7 a.u.
2'F-ANA at 1 5 10 11: 47.9 a.u.
2'F-ANA at 1 2 3 5 8 14 15: 111 a.u.
2'F-ANA at 3 6 7 8 10 11 12 13 15: 491 a.u.
2'F-ANA at 1 3 4 5 6 7 8 9 10 14 15: 93.4 a.u.
2'F-ANA at 3 7 9 10 11 14: 368 a.u.
2'F-ANA at 4 6 8 9 12: 571 a.u.
2'F-ANA at 4 7 9 11 13 14: 80.3 a.u.
2'F-ANA at 2 3 4 8 11 13 14: 292 a.u.
2'F-ANA at 2 4 5 7 8 15: 75.3 a.u.
2'F-ANA at 1 3 6 10 13 14: 61 a.u.
2'F-ANA at 2 3 7 12 14: 553 a.u.
2'F-ANA at 2 6 7 10 14: 89.5 a.u.
2'F-ANA at 1 2 4 6 7 11 12: 183 a.u.
2'F-ANA at 1 7 13 14: 54.6 a.u.
2'F-ANA at 1 5: 73.7 a.u.
2'F-ANA at 1 3 6 7 8 9 10: 86.7 a.u.
2'F-ANA at 5 7 8 9 10 11 12 13 14 15: 44.7 a.u.
2'F-ANA at 2 4 5 8 9 12 15: 156 a.u.
2'F-ANA at 3 4 7 8 9 11 13 14: 296 a.u.
2'F-ANA at 2 3 4 5 6 10 11 12 13 14 15: 52.8 a.u.
2'F-ANA at 1 4 6 8 11 12 13 14: 67.4 a.u.
2'F-ANA at 1 5 7 10 12 13 15: 56.6 a.u.
2'F-ANA at 1 3 4 6 8 10 11 14: 49.3 a.u.
2'F-ANA at 1 3 5 6 8 10 11 12 13: 50.6 a.u.

Study 4
Target: Fragile X messenger ribonucleoprotein 1, C-terminal low-complexity region (Fmr1, Mus musculus, UniProt P35922)
Method: RNA Bind-n-Seq
Molecule type: RNA
Medium: in vitro
Concentration: 200 nM
Notes: whole 134-nt RNA, ends assumed
With: 150 mM KCl
Reference: input library
Direction: higher = stronger binding
Measurement: log2 enrichment
All sequences stand within: GGGAGUUCUACAGUCCGACGAUC … UGGAAUUCUCGGGUGUCAAGG
CCUCAAGUCCUGUGCUACACAUCGUAUGUACCGAAUCGGAGGGGAGGGAGGGAAAGUAUUAUGUUACGCCGUUCGGAUCUGCACUUCCAG: 1.41
AAGUCCUGUGCUACACAUCGUAUGUACCGAAUCGGGUUUUUGGUUUUUGGUUUUUGGAAAGUAUUAUGUUACGCCGUUCGGAUCUGCACU: -0.792
AAGUCCUGUGCUACACAUCGUAUGUACCGAAUCGGGAGGGUUUGGGAAAAAAAGGGAAAGUAUUAUGUUACGCCGUUCGGAUCUGCACUU: 0.378
UAAUUGAAGAACCCAUUUUGCUCAUUUUAGGCAUCGUUAAAGAAUCUGGAGUGAAGCACAAGGGAUUGAUUGAAAUACCCAAUCUUUCUG: 0.118
AAGUCCUGUGCUACACAUCGUAUGUACCGAAUCGGGUUUUUUUGGGUUUGGGAGGGAAAGUAUUAUGUUACGCCGUUCGGAUCUGCACUU: 0.776
AAGUCCUGUGCUACACAUCGUAUGUACCGAAUCAAACCCCCAAAUUUAAACCCAAAAAAGUAUUAUGUUACGCCGUUCGGAUCUGCACUU: -0.137
CAAGUCCUGUGCUACACAUCGUAUGUACCGAAUCGGGAGGGUUUGGGUUUUUGGGAAAGUAUUAUGUUACGCCGUUCGGAUCUGCACUUC: 0.869
AAGUCCUGUGCUACACAUCGUAUGUACCGAAUCGGAAAAGGGAAAAGGGGAAAAGGAAAGUAUUAUGUUACGCCGUUCGGAUCUGCACUU: -0.379
UCAAGUCCUGUGCUACACAUCGUAUGUACCGAAUCGGGUGGGAAAAAGGGUGGGAAAGUAUUAUGUUACGCCGUUCGGAUCUGCACUUCC: 1.05
CUCAAGUCCUGUGCUACACAUCGUAUGUACCGAAUCGGAAAGGAAAGGGAAAGGAAAGUAUUAUGUUACGCCGUUCGGAUCUGCACUUCC: -0.439
CCUCAAGUCCUGUGCUACACAUCGUAUGUACCGAAUCGGGGCGGGGCGGGCGGAAAGUAUUAUGUUACGCCGUUCGGAUCUGCACUUCCA: 0.488
CACAGACAACACGCACCCACACAGACACAGAGGGAAGGGGUUGGGAUGGGGACAGGGUGCACAGCAGGGCGGGGUAGGACCCCAGCUCCU: 1.22
UAACUUUAGAGGAGGAUCUGAUGGAUAUGGCAGUGCACGUGGAUUUGGGGAUGGCUAUAAUGGGUAUGGAGGAGGACCUGGAGGUGGCAA: 0.224
GUCCUGUGCUACACAUCGUAUGUACCGAAUCGGGAAAAAGGGUUUGGGUUUUUUUGGGAAAGUAUUAUGUUACGCCGUUCGGAUCUGCAC: -0.28

A few entries again (study 1):
GAGCUUUCAUGCUCAGUUGGAAUCUAAUGAAAUAAAUUCUCUUAGCAUACAUUGUAAAUUUGUAUUGUUUUAAAUACAGUAUUGUUUGCUGAAGCAUUGUAAUCAAGUUU: 0.379
GCAGCUGUGAUUGUCAAGGAUCAGCUGUAAUGACUUCCUUGUUGCCUCUCCUGAAGUAUCACUCUACUAAAUGGUUAACAAACCAAUACUUUUAAAAUUGUACCCAAACC: 1.06
CCCUCUGAUGGCCACUCAGAGAAUACCAUAAUAAACAUGGCUGAGGACCCAGGAGAGUUCACGGGAGGCUUCAUCAUAUGAAAGGACAAUGUUCUGGGUUGUGCAUGAAA: 1.49
UGGGCCUGCGAGACCCAAGGCUCACUGCAGCGCGCUCCUGACCCCUCCCUGCAGGGGCUACGUUAGCAGCCCAGCACAUAGCUUGCCUAAUGGCUUUCACUUUCUCUUUU: 0.636
UGCUGCCAUGUCUCAGAUGAGGAGGGAGAGAAGGAGGCCGCCAGACUCGAGAGGUGGGAGGAACUCCUUGCACACACCCUGAGCUUUUGCCACUUCUAUCAUUUUUGAGC: 1.64
UGUGUGUUUAAUUUUUGCUUCAAGCUCUGUAGCAGGACCUGCCCCACGCACACCCCUACCCCUCUGUGAGGAGCUGUGGGAAGUGUGGGUUUGUCUCCAGAACAGAAGAG: 0.231
